Assay results of several laboratories.
Every numbered part comes from another study and shows a few of its results, in no order.
Sequence of UniProt P93022 (whole entry, looked up): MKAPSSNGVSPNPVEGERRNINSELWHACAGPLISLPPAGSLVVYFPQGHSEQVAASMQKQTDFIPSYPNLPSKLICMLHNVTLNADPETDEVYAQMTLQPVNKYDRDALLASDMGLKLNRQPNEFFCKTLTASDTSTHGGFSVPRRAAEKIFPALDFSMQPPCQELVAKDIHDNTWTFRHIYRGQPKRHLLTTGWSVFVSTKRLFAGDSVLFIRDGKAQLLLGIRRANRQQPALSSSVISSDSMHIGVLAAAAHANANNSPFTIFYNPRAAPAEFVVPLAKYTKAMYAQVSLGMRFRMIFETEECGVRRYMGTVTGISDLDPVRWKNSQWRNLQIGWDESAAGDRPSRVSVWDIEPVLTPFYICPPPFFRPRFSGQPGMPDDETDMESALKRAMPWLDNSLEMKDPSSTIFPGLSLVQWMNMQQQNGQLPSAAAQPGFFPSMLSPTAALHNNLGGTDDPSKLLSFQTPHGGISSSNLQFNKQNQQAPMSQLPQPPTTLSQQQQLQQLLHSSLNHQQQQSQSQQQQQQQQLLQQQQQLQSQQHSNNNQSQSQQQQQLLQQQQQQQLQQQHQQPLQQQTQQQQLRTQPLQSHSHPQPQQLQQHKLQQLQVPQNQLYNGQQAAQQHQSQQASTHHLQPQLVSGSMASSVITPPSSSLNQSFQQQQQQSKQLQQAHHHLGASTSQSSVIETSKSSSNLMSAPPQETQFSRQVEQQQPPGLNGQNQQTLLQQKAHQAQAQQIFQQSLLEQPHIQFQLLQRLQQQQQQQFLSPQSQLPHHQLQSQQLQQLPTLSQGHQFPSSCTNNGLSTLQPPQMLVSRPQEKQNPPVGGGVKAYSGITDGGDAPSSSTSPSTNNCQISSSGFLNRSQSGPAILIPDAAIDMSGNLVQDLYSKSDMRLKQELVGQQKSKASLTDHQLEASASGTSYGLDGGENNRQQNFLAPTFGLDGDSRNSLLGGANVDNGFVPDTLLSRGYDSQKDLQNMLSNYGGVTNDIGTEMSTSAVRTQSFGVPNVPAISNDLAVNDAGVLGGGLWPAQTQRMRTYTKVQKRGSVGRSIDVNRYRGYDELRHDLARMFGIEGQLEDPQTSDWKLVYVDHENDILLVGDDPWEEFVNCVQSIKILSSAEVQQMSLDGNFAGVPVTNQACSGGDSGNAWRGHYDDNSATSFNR
Sequence of UniProt Q93WC4 (whole entry, looked up): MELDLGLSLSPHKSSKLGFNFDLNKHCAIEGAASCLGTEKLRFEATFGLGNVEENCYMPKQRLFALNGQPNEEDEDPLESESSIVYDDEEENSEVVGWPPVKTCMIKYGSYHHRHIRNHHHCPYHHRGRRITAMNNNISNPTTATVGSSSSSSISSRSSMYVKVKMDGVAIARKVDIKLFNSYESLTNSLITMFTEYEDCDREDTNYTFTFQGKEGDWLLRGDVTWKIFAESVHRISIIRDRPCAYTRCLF

Sample 1
Target: Fragile X messenger ribonucleoprotein 1, C-terminal low-complexity region (Fmr1, Mus musculus, UniProt P35922)
Technique: RNA Bind-n-Seq
Molecule type: RNA
Medium: in vitro
Tested at: 200 nM
Notes: whole 134-nt RNA, ends assumed
Added: 150 mM KCl
Relative to: input library
Reading: higher = stronger binding
Strand | log2 enrichment
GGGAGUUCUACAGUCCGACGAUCUCCUGUGCUACACAUCGUAUGUACCGAAUCGGGAAAAAAAGGGUUUUUUUGGGUUUGGGAAAGUAUUAUGUUACGCCGUUCGGAUCUGCAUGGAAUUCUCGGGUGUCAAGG | -0.337
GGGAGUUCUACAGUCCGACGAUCCUCAAGUCCUGUGCUACACAUCGUAUGUACCGAAUCGGGAAGGGGAAGGAAGGAAAGUAUUAUGUUACGCCGUUCGGAUCUGCACUUCCAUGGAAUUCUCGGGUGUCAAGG | -0.17
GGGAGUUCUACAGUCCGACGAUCAAGUCCUGUGCUACACAUCGUAUGUACCGAAUCGGGGAAAGGGGAAAGGGAAAGGGAAAGUAUUAUGUUACGCCGUUCGGAUCUGCACUUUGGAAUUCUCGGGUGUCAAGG | 0.445
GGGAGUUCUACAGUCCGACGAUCCACAGACAACACGCACCCGCACAGACACAGAGGGAAGGGGUUGGGAUGGGGACAGGGUGCACAGCAGGGCGGGGUAGGACCCCAGCCCCUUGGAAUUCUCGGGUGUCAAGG | 1.27
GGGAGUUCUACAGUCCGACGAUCUGGGAGGUGGAUUUUGUUUAUUUUUUUAGCUCAUUUCGAGGGGUGGGAAUUUUUUUUUAAUAUGUGUCAUGAAUAAAGUUGUUUUUGAAAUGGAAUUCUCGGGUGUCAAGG | 0.171
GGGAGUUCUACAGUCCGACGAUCGUCCUGUGCUACACAUCGUAUGUACCGAAUCGGGUUUUUUUGGGUUUGGGUUUUUGGGAAAGUAUUAUGUUACGCCGUUCGGAUCUGCACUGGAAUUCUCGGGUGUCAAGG | -0.0103
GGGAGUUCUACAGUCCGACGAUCAAGUCCUGUGCUACACAUCGUAUGUACCGAAUCGGGAAAGGGAAAGGGGAAAGGGGAAAGUAUUAUGUUACGCCGUUCGGAUCUGCACUUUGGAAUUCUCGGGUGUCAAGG | 0.195
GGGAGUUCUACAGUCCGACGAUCCAAGUCCUGUGCUACACAUCGUAUGUACCGAAUCGGUUUUGGUUUUGGGUUUUGGGAAAGUAUUAUGUUACGCCGUUCGGAUCUGCACUUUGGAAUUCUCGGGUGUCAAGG | -0.772

Sample 2
Target: PABPC1L2, full length, GST fusion (mouse, UniProt A0ABA7IW68)
Technique: RNAcompete
Molecule type: RNA
Medium: in vitro
Tested at: 20 nM
Notes: 7-mer, probes averaged, single round
Relative to: mean of 7-mers
Reading: higher = stronger binding
Construct (chain): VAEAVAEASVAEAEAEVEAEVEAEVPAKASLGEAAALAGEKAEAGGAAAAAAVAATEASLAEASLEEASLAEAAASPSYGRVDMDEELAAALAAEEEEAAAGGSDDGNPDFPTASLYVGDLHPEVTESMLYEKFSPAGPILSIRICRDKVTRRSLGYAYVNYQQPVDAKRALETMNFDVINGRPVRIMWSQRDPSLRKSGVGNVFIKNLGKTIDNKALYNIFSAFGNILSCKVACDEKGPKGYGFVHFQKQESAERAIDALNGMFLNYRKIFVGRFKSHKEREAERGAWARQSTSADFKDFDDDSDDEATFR
Strand | 7-mer Z-score
CGACAGC | -0.0482
GUUGAUC | -0.211
UGUGGGA | 0.167
UCAAAUA | 0.162
CCGGACC | -0.313
GGGUAUC | 0.0207
CUCAGCA | -0.0899
AUAGCGC | -0.0536

Further values, each from its own experiment
Molecule | target or system | test | test system | conditions | scale | quantity | value
IAA29 (Arabidopsis thaliana, UniProt Q93WC4) | ARF7 1030-1164 (Arabidopsis thaliana, UniProt P93022) | two-hybrid | – | – | relative to: out of 4 tests, higher = firmer interaction | positive tests | 4
MELSLRAIQ | HLA class I histocompatibility antigen, A alpha chain, allele A*25:01 (Homo sapiens, UniProt P04439) | peptide-MHC binding | peptide | concentration not given | – | binding | inactive
